Measurements gathered from unrelated publications.

| SMILES | test | test system | conditions | scale | quantity | value |
| --- | --- | --- | --- | --- | --- | --- |
| COc1ccc(F)cc1C(=O)NCc1ccc(-c2nn([C@@H](C)C(F)(F)F)c(N)c2C(N)=O)cc1 |  | human, plasma | oral, 200 mg once daily |  | AUCtau | 114000 ng·h/mL |
| O=C(c1ccc(F)c(F)c1Nc1ccc(I)cc1F)N1CC(O)([C@@H]2CCCCN2)C1 |  | human patients | oral, dose not given, dose escalation, tablet |  | treatment-related adverse events | 89% |
| O=c1ccc2ncc(=O)n3c2n1C[C@H]3CN1CCC(NCc2cc3c(cn2)OCCC3)CC1 |  | healthy human volunteers, plasma | oral, dose not given, added: itraconazole | relative to: compound alone | increase in AUC and Cmax | 40 to 50% |
| CN1CC[C@@H](c2c(O)cc(O)c3c(=O)cc(-c4ccc(C(F)(F)F)cc4Cl)oc23)[C@@H]1CO | measured: grade 3 febrile neutropenia | relapsed or refractory haematologic malignancy patients | oral, dose not given, phase dose escalation, all doses |  | patients with adverse event | 7.5% |
| CCc1ccc(CC/C=C/c2ccc3c(c2)C(=O)CC3)cc1 |  | Sprague-Dawley rat, female, serum | oral, 450 mg/kg/day, 14 days |  | total protein | 58.8 g/L |
| C[C@]1(CO)Cc2ncn(-c3ccc(C#N)c(Cl)c3)c2C(=O)O1 |  | human | 10 mg multiple doses, fasted |  | subjects with drug-related dizziness | 11.1% |
| CCNCCCNC/C=C\CNCCCNCC |  | human, advanced solid tumours | intravenous, dose not given | relative to: patients | serious TEAE, dyspnoea | 15.2% |
| COc1ncnn2ccc(-c3cnc4nc(C)n(Cc5nnc([C@@H](C)F)o5)c4c3)c12 |  | human patients | oral, dose not given |  | incidence of grade 1 adverse events | 7.1% |
| C=CCNc1c(O)cc2c(O)c1C[C@@H](C)C[C@H](OC)[C@H](O)[C@@H](C)/C=C(\C)[C@H](OC(N)=O)[C@@H](OC)/C=C\C=C(/C)C(=O)N2 |  | unresectable or metastatic STS, GIST, other | intravenous, 300 mg/m^2 |  | patients with myalgia TEAE | 33% |
| COc1cc2c(Oc3ccc4[nH]c(C)cc4c3F)ccnc2cc1OCC1(N)CC1 |  | paediatric recurrent refractory sarcoma | 8 mg |  | grade 1 or 2 Hyperuricemia | 0% |
| CN1CCN(S(=O)(=O)c2cc([N+](=O)[O-])ccc2N(CCOS(C)(=O)=O)CCOS(C)(=O)=O)CC1 |  | naive NOD/SCID mice, pooled blood | intraperitoneal, 6.3 mg/kg, week 1 |  | potassium | 6.8 mmol/L |
| CC1(C)NC(=O)N(c2ccc(F)c(CC(F)(F)F)c2)C1=O |  | Schistosoma mansoni-infected NMRI mice | 10 mg/kg |  | toxicity | not toxic |
| CO[C@H]1C[C@@H]2CC[C@@H](C)[C@@](O)(O2)C(=O)C(=O)N2CCCC[C@H]2C(=O)O[C@H]([C@H](C)C[C@@H]2CC[C@@H](OC(=O)NCCOCCOCCOCCOCCOCCOCCOCCOCCC(=O)N3CCc4cc(Cn5nc(-c6ccc7oc(N)nc7c6)c6c(N)ncnc65)ccc4C3)[C@H](OC)C2)C[C@@H](O)[C@H](C)/C=C(\C)[C@@H](O)[C@@H](OC)C(=O)[C@H](C)C[C@H](C)/C=C/C=C/C=C/1C |  | patients with advanced solid tumours | intravenous, 12 mg weekly, any grade |  | vomiting incidence | 41.7% |
| CC(=O)c1c(C)c2cnc(Nc3ccc(C4CCN(CCS(C)(=O)=O)CC4)cn3)nc2n(C2CCCC2)c1=O |  | HR+/HER2- advanced breast cancer patients | oral, dose not given, grade 3/4,, total |  | patients with Neutropenia | 65.4% |
| O=C(Nc1ccccc1)C1CCN(C(=O)Oc2cccnc2)CC1 | Bond-Lader VAS | healthy women | oral, 100 mg | relative to: pre-dose baseline, direction not given | change in Happy-Sad score | -18 |
| Cn1ncc(-c2nc(N[C@H]3CC[C@H](N)CC3)ncc2Cl)c1CC1CC1 | HPLC-MS/MS | patients, plasma | oral, 11 mg, day 1 |  | Cmax | 27.8 ng/mL |
| CC[C@H](C)CCCCC(=O)N[C@@H](CCN)C(=O)N[C@H](C(=O)N[C@@H](CCN)C(=O)N[C@H]1CCNC(=O)[C@H]([C@@H](C)O)NC(=O)[C@H](CCN)NC(=O)[C@H](CCN)NC(=O)[C@H](CC(C)C)NC(=O)[C@@H](Cc2ccccc2)NC(=O)[C@H](CCN)NC1=O)[C@@H](C)O |  | critically ill patients, low initial AUC group, plasma | dose not given, median |  | AUC(0-24 h) at steady state | 41800 ng·h/mL |
